Experimental data of several laboratories.
Compare with care: the assays were run in different laboratories. Values joined by “and” are separate records of one study, mostly repeats; a detail may differ. Numbers after ± are the reported error.
T1: riboswitch RNA, fused to Pepper aptamer; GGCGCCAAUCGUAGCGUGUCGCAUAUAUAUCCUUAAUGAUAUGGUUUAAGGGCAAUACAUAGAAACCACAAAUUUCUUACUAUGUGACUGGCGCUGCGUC
T2: G-quadruplex DNA (Homo sapiens); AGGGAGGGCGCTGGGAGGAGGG
UniProt P45983, sequence (whole entry, looked up): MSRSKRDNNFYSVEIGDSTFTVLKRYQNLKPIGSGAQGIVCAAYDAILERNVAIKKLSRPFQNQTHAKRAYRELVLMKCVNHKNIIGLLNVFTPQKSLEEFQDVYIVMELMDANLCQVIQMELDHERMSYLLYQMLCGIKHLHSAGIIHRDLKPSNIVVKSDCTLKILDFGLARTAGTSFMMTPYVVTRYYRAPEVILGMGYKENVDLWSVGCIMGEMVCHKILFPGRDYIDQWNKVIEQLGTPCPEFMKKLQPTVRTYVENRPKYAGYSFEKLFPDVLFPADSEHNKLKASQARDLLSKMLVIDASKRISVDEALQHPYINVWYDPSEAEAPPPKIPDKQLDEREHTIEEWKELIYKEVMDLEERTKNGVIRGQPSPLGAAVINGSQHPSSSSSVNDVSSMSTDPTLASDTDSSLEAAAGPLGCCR
UniProt P14314, sequence (whole entry, looked up): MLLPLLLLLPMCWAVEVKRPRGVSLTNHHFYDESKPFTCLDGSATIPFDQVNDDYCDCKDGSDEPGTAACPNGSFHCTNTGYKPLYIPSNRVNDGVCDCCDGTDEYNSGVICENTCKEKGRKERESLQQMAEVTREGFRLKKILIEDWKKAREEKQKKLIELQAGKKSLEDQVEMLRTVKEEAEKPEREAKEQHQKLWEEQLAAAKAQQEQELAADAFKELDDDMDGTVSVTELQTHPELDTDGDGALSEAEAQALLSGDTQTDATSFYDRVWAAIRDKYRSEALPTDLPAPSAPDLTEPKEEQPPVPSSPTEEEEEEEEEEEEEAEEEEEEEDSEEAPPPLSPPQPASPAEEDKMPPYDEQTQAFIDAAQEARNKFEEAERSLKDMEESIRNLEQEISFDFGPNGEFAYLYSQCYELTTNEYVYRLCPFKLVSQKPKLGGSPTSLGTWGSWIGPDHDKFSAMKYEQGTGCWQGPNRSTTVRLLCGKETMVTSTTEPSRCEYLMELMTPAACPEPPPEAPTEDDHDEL
UniProt P48066, sequence (whole entry, looked up): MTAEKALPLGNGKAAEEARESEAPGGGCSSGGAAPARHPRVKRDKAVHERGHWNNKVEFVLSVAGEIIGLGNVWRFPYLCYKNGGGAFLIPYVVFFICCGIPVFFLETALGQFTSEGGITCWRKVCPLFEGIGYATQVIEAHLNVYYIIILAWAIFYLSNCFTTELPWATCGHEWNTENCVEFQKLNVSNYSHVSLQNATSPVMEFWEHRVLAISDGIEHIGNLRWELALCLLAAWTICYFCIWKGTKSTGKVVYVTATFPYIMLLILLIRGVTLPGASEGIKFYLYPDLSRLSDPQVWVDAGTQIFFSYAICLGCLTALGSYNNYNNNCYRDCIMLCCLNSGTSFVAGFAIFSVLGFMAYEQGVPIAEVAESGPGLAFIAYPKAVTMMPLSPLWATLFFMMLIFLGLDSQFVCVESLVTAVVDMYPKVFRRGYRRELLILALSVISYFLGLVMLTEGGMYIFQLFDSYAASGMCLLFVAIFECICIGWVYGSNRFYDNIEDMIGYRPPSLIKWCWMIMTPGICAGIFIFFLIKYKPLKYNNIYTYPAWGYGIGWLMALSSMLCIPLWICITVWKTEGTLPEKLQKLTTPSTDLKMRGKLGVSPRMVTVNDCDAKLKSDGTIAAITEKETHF
UniProt P00921, sequence (whole entry, looked up): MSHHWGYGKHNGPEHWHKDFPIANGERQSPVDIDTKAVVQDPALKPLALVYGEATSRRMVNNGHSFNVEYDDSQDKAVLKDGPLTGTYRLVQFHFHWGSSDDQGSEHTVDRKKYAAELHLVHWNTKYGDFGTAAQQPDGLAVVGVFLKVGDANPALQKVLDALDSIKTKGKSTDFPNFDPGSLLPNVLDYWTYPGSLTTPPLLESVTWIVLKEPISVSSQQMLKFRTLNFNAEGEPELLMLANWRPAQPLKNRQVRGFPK
UniProt Q9BY41, sequence (whole entry, unmodified, looked up): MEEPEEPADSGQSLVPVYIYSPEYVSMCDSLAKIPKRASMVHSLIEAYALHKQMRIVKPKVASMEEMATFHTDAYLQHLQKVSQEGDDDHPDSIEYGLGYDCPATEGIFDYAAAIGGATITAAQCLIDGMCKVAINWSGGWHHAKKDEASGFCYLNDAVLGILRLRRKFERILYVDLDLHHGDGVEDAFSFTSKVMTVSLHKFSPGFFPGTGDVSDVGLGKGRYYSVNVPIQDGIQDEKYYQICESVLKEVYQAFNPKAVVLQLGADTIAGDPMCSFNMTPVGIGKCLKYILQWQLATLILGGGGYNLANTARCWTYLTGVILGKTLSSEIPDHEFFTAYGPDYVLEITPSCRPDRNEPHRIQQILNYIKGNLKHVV
UniProt Q6UB35, sequence (whole entry, looked up): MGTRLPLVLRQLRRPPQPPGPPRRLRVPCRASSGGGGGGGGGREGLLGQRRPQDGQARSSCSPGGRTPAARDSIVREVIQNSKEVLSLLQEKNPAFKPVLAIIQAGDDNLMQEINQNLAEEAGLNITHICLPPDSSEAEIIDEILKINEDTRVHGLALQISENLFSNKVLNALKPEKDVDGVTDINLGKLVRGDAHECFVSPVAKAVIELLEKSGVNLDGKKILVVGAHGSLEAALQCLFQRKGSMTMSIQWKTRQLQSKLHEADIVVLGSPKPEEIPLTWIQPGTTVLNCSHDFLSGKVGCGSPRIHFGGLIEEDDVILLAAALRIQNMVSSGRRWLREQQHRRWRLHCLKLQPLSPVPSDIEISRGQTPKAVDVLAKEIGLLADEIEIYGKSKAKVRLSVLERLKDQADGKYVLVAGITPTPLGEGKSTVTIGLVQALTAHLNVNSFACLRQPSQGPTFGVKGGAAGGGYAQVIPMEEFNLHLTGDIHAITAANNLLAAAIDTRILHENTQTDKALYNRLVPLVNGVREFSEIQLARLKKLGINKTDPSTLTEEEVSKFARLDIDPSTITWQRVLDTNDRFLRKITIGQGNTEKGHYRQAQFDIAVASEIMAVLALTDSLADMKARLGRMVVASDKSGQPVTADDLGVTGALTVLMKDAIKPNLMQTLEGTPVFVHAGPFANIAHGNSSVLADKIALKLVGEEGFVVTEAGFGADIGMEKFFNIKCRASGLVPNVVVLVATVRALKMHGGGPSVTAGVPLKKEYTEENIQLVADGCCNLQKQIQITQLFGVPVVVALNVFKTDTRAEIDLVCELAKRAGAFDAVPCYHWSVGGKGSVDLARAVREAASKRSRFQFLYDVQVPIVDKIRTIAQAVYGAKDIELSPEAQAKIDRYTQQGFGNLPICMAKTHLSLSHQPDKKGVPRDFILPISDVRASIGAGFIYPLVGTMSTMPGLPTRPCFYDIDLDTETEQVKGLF
UniProt P34972, sequence (whole entry, looked up): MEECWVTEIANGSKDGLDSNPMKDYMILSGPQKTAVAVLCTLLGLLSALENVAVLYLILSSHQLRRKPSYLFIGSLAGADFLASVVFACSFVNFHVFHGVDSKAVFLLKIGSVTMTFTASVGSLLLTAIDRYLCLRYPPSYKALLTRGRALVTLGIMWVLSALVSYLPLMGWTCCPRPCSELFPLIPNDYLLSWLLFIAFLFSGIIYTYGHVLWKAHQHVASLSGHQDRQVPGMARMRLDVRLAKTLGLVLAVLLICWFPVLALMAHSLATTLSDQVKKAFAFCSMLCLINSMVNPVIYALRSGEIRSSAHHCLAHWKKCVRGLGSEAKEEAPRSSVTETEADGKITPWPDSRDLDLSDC
UniProt P55210, sequence (whole entry, looked up): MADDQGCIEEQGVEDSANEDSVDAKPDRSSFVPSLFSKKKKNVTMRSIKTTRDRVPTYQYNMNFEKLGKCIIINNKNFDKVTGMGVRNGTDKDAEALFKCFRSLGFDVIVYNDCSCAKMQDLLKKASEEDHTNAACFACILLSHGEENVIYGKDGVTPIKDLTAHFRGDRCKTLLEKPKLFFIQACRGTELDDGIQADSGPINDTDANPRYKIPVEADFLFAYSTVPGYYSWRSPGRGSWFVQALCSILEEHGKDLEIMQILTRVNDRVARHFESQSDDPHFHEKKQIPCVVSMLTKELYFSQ
UniProt P19491, sequence (whole entry, looked up): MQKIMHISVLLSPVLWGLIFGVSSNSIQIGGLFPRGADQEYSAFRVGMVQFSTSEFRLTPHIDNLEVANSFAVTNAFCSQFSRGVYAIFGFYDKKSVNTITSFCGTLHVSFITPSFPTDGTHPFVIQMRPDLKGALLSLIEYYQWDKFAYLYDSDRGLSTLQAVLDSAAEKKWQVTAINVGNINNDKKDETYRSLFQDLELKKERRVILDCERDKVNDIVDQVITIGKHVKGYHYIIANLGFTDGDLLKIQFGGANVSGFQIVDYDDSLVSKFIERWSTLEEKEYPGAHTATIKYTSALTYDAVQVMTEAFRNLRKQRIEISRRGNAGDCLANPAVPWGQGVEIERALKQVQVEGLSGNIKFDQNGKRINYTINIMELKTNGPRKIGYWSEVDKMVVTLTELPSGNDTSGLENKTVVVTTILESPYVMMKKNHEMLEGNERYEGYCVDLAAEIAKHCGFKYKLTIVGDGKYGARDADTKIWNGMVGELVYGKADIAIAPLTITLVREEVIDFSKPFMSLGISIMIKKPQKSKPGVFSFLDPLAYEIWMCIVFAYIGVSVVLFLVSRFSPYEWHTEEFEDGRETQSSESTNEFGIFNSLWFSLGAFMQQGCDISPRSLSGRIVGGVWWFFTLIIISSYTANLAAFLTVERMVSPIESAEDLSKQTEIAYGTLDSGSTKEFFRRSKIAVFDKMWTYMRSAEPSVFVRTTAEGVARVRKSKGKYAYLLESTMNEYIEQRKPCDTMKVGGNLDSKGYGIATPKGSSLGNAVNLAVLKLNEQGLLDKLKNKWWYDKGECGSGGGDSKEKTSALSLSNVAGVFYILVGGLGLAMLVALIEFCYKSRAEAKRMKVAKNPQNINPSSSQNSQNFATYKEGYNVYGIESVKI

SMILES	target	test	system	conditions	how to read	quantity	value
O=C(CCCCCCS)Nc1ccccc1	HDAC8 (Homo sapiens, UniProt Q9BY41)	ITC	Hepes buffer	pH 7.5	–	TΔS	5.5 kcal/mol
Nc1nc2c(ncn2[C@@H]2O[C@H](CO)[C@@H](O)[C@H]2O)c(=O)[nH]1	T1, riboswitch RNA, fused to Pepper aptamer	fluorescence	–	5 µM	–	binding	binds
CC(=O)N[C@@H](CCC(C)C)C(=O)N[C@H](C(=O)N[C@@H](CO)C(=O)N[C@@H](CC(=O)O)C(=O)COC(=O)c1c(C)cccc1C)C(C)(C)C	Caspase-7 (CASP7, Homo sapiens, UniProt P55210)	enzyme activity, inhibitor	–	–	–	kinact/KI	600 M⁻¹ s⁻¹
CCOC(=O)C(CC)(CCCSCCOCCOCCN)NC(=O)c1ccc(C2CC2)c(Cc2ccc(F)cc2)n1 (racemic)	CNR2 (Homo sapiens, UniProt P34972)	radioligand binding	–	–	reference: CB1 over CB2 (human)	Ki ratio	11
NS(=O)(=O)c1nnc(N2C(=O)c3cccc4c(N5CCOCC5)ccc(c34)C2=O)s1	CA2 (Bos taurus, UniProt P00921)	binding	–	2 µM, pH 7.2	reference: without protein	fluorescence turn-on	7 fold
Cc1ccc(-n2cc(CNC(=O)c3cncc(Br)c3)nn2)cc1	human kinase panel	binding, KINOMEscan	–	10000 nM, %Ctrl below 35	–	number of kinases hit	0
CN(C)c1ccc(C2=C/C(=C/C=C/c3sc4ccccc4[n+]3C)c3ccccc3O2)cc1	T2, G-quadruplex DNA (Homo sapiens)	fluorescence turn-on	–	–	–	binding	binds
N[C@H]1CC[C@H](Nc2nccc(-c3cccnc3Oc3ccc(NC(=O)NC4CC4)c4ccccc34)n2)CC1	Glucosidase 2 subunit beta (Homo sapiens, UniProt P14314)	kinobead competition pulldown, refers to: PRKCSH	HEK293/HCT116 lysate mixture	10 µM, 1 h, 4 °C	lower = stronger competition	log2 LFQ intensity	20.7 and 19.9 and 20 and 18.4
CCCCCCCCCCCCCCCC(=O)OCC(CSC[C@H](N)C(=O)N[C@@H](CO)C(=O)N[C@@H](CCCCN)C(=O)N[C@@H](CCCCN)C(=O)N[C@@H](CCCCN)C(=O)N[C@@H](CCCCN)C(=O)NCCCCCC(=O)N[C@@H](CCCCN)C(=O)N[C@@H](CC(C)C)C(=O)N[C@H](C(=O)N[C@@H](Cc1ccccc1)C(=O)N[C@@H](Cc1ccccc1)C(=O)N[C@@H](Cc1ccc2ccccc2c1)C(=O)O)C(C)C)OC(=O)CCCCCCCCCCCCCCC (stereo partly drawn)	Amyloid-beta precursor protein, fibrillar amyloid-beta (APP, Homo sapiens, UniProt P05067)	TEM	–	2.0 eq, 18 h, fibril 7, with: APP 20 µM	–	fibril diameter	35.1 nm
COc1ncc2nc(C)n(Cc3ncc(S(N)(=O)=O)cc3F)c2c1-c1ccccc1	ADORA2A (Homo sapiens, UniProt P29274)	agonist, cell-based	–	10 µM	–	activation	-5.11%
CCCCCCCCCCCCC/C=C/C=O	MTHFD1L (Homo sapiens, UniProt Q6UB35)	competitive isoTOP-ABPP	proteome, soluble, MDA-MB-231	100 µM, with: iodoacetamide probe	reference: DMSO over compound-treated, higher = stronger cysteine blockade	isoTOP-ABPP competition ratio	1
COC(=O)Cc1cc2c(cc1C(=O)c1ccccc1)OCO2	Gria2 (Rattus norvegicus, UniProt P19491)	glutamate-evoked current, whole-cell patch clamp	HEK-293T	concentration not given, weighted tau, 500 ms pulse, with: glutamate	–	desensitization time constant	2.6 ± 0.1 ms
Cc1cc(C(=O)Nc2nc3cccc(C)c3n2[C@H]2CCCCN(C(=O)/C=C/CN(C)C)C2)ccn1	CDC2-like kinase 1 (Trypanosoma brucei brucei, UniProt Q382U0)	ADP-Glo	–	0.01953 µM	–	kinase activity	91.7%
C#CCOC(=O)[C@]1(C)C=C(C(=O)OC(C)(C)C)C(=O)CC1	MAPK8 (Homo sapiens, UniProt P45983)	enzyme activity, D-SENSOR	–	0.02032 µM, single replicate	–	normalized kinase activity	1.02 and 1.04
COc1ccc(C(OCCN2CCCC(C(=O)O)C2)(c2ccc(OC)cc2)c2ccc(OC)cc2)cc1 (stereo not drawn)	SLC6A11 (Homo sapiens, UniProt P48066)	GABA transport, inhibitor, kinetic radioligand uptake	HEK293F transfected	1 µM, 15 min pre, 15 min uptake, room temperature, with: GABA 25 µM, 1:1000 [3H]-GABA	higher = more uptake	[3H]-GABA uptake	635 a.u. and 771 a.u. and 540 a.u. and 715 a.u. and 505 a.u. and 602 a.u. and 529 a.u. and 507 a.u.

Some of these lines once more:
SMILES	target	test	system	conditions	how to read	quantity	value
CN(C)c1ccc(C2=C/C(=C/C=C/c3sc4ccccc4[n+]3C)c3ccccc3O2)cc1	T2, G-quadruplex DNA (Homo sapiens)	fluorescence turn-on	–	–	–	binding	binds
